Measurements pooled from the literature.
Protocols differ between the studies behind these lines. Values joined by “and” are separate records of one study, mostly repeats; a detail may differ.

`TLILGKLGIGLL`: “minimal haemolytic concentration” “inactive” (peptide, mouse red blood cells; concentration not given).
`QAKTFLDKFNHEAEDLFYQ` — result for “random coil content”: 0% (circular dichroism; peptide, water/TFE 1:1 v/v; 200 µM, 25 °C).
`YGRKKRRQRRR / EIDHD (TAT-fused)` — result for “retention time in hippocampus”: at most 14 days (peptide, mouse; intrahippocampal CA1, 0.1 mg/kg).
The colon length of `GWTLNSAGYLLGPHAVDNHRSFNDKHGFT-NH2 (C-amide)` is reported as 9 cm and 8.2 cm and 9.1 cm and 8.5 cm (peptide, healthy male mice; ip, 3 µM).
Under “minimal haemolytic concentration”, `SLIRKTSILLL` is recorded as “inactive” (peptide, mouse red blood cells; concentration not given).
`Ac-KLALKLALKALKAALKLA-NH2 (N-acetyl, C-amide)` has a retention time of 24 min (RP-HPLC; peptide).
`insulin human` gave a fold change of 1.2 (measured: GLUD1 mRNA; EcoHIV-infected mouse, brain; i.p., dose not given; relative to: PBS).
`heparin sodium` — result for “decreased white blood cells”: 100% (healthy Chinese adult volunteers; continuous intravenous infusion, 8 IU/kg/h, 5 days).
`DPDPE` gave a retention time of 16.1 min (RP-HPLC; HALO RP-amide column; 25 µM, formic acid/methanol, 25 min gradient).
With `GIGKFIHAVKKWGKTFIGEIAKS-NH2 (C-amide)` the retention time was 18.7 min (RP-HPLC; peptide).
`YISPQYYGETWVTTIG`: “random coil content” 90% (circular dichroism; peptide, water with 5% DMSO; 500 µM, 18 °C).
`ILGTILGLLKGLOH`: “minimal haemolytic concentration” “inactive” (peptide, mouse red blood cells; concentration not given).
With `benzalkonium chloride` the mortality was about 80% (zebrafish larvae; 5 µM, intact compound, not light-degraded).
Under “random coil content”, `MEASGVNYQNMNKQTT` is recorded as 79% (circular dichroism; peptide, water with 5% DMSO; 500 µM, 18 °C).
For `Polymyxin B`, the survival was 0% (mouse; intraperitoneal, 40 mg/kg single dose, day 1).
With `FTMSPPLQMPSKNY` the alpha-helix content was 4% (circular dichroism; peptide, water with 5% DMSO; 500 µM, 18 °C).
For `Tetramethylrhodamine biocytin`, “increase in mean fluorescence intensity” read 68.5% (mouse JIMT1-BR brain metastasis model, brain micrometastases; intravenous, 10 min; relative to: uninvolved brain).

A few entries again:
Under “minimal haemolytic concentration”, `SLIRKTSILLL` is recorded as “inactive” (peptide, mouse red blood cells; concentration not given).
`Ac-KLALKLALKALKAALKLA-NH2 (N-acetyl, C-amide)` has a retention time of 24 min (RP-HPLC; peptide).
